# Experimental data gathered from unrelated publications.
# Each line is one published result; not all experiments were run side by side. ± gives the spread as reported.
Compound,assay,test system,setting,scale,endpoint,result
CCCC[C@H](NC(=O)[C@H](CCC(=O)O)NC(=O)CNC(=O)CN1CCN(CC(=O)O)CCN(CC(=O)O)CCN(CC(=O)O)CC1)C(=O)N[C@H]1CC(=O)NCCCC[C@@H](C(N)=O)NC(=O)[C@H](Cc2c[nH]c3ccccc23)NC(=O)[C@H](CCCNC(=N)N)NC(=O)[C@@H](Cc2ccccc2)NC(=O)[C@H](Cc2c[nH]cn2)NC1=O [indium-111 labelled],,"C57 mouse, B16/F1 melanoma",0.5 h,baseline: tumour over skin,tumour to skin uptake ratio,7.21
CC(F)C(=O)NC[C@@H]1O[C@H](C(=O)NCCCC[C@@H]2NC(=O)[C@@H](Cc3ccc(O)cc3)NC(=O)[C@H](CC(=O)O)NC(=O)CNC(=O)[C@H](CCCNC(=N)N)NC2=O)[C@H](O)[C@H](O)[C@H]1O (stereo partly shown) [fluorine-18 labelled],microPET,"female athymic nude mouse, U-87 MG xenograft, U-87 MG tumour","intravenous, 3.7 MBq, 20 min",,tumour uptake,1.95 ± 0.25 %ID/g
O=C(NCCN1C(=O)C=CC1=O)[O][Pt-2]12([O]C(=O)NCCN3C(=O)C=CC3=O)([NH2+][C@@H]3CCCC[C@H]3[NH2+]1)[O]C(=O)C(=O)[O]2,,"BALB/c mouse CT26 allograft, tumour","intravenous, equimolar single dose",baseline: compound over oxaliplatin,tumour uptake AUC ratio,10 fold
CC(C)[C@H](NC(=O)[C@@H]1CCCN1C(=O)[C@H](CCCNC(=N)N)NC(=O)[C@H](CS)NC(=O)[C@H](Cc1c[nH]c2ccccc12)NC(=O)[C@H](CCCNC(=N)N)NC(=O)[C@@H](Cc1ccccc1)NC(=O)[C@H](Cc1c[nH]cn1)NC(=O)[C@H](CCC(=O)O)NC(=O)[C@H](CS)NC(=O)[C@H](CS)NC(=O)CNC(=O)[C@@H]1CC(=O)N[C@@H](CCCNC(=N)N)C(=O)NCC(=O)N[C@@H](CC(=O)O)C(=O)N[C@H](Cc2ccc(O)cc2)C(=O)N1)C(N)=O [technetium-99m labelled],,"C57 mouse, female, B16/F1 melanoma","intravenous, 0.037 MBq, 2 h",baseline: tumour over blood,tumour to tissue ratio,16.4
CN1C(=O)[C@@H](Cc2ccc(O)c(I)c2)NC(=O)CNC(=O)[C@H](Cc2ccc3ccccc3c2)NC(=O)[C@H](CCCNC(=N)N)NC(=O)[C@H]1CCCNC(=O)c1ccc(CNC(=O)CN2CCN(CC(=O)O)CCN(CC(=O)O)CC2)cc1 [fluorine-18 labelled],biodistribution,"SCID mouse, Daudi lymphoma xenograft",1 h post-injection,,tumour to small intestine ratio,2.2 ± 0.4
CSCC[C@H](NC(=O)[C@H](Cc1ccc(O)cc1)NC(=O)[C@@H]1CSSC[C@H](NC(=O)[C@H](Cc2ccc(O)cc2)NC(=O)[C@H](CCCCN)NC(=O)[C@H](CC(C)C)NC(=O)[C@@H](NC(=O)[C@H](Cc2ccccc2)NC(=O)[C@H](Cc2ccccc2)NC(=O)CCCCCOc2cc(C(=O)c3ccc4ccc5cccc6ccc3c4c56)cc(C(=O)c3ccc4ccc5cccc6ccc3c4c56)c2)C(C)C)C(=O)N[C@@H](CC(=O)O)C(=O)NCC(=O)N[C@@H](Cc2ccccc2)C(=O)N[C@@H](Cc2ccc(O)cc2)C(=O)N[C@@H](C)C(=O)N1)C(=O)N[C@@H](CC(=O)O)C(=O)N[C@H](C(N)=O)C(C)C,ex vivo fluorescence imaging,"Balb/c nude mouse, MCF7/C6 tumour","iv, 8 mg/kg",,tumour fluorescence persistence,> 3 days
CCCC[C@H](NC(=O)CNC(=O)CNC(=O)CN1CCN(CC(=O)O)CCN(CC(=O)O)CCN(CC(=O)O)CC1)C(=O)N[C@H]1CC(=O)NCCCC[C@@H](C(N)=O)NC(=O)[C@H](Cc2c[nH]c3ccccc23)NC(=O)[C@H](CCCNC(=N)N)NC(=O)[C@@H](Cc2ccccc2)NC(=O)[C@H](Cc2c[nH]cn2)NC1=O [gallium-67 labelled],,female C57 mouse B16/F1 melanoma,"intravenous, 0.037 MBq, 0.5 h",,tumour to kidney ratio,1.64
CC(C)C[C@H](NC(=O)C[C@H](O)[C@H](CC(C)C)NC(=O)[C@H](Cc1c[nH]cn1)NC(=O)CNC(=O)[C@@H](NC(=O)[C@H](C)NC(=O)[C@H](Cc1c[nH]c2ccccc12)NC(=O)[C@H](CCC(N)=O)NC(=O)[C@@H](Cc1ccccc1)NC(=O)CCNC(=O)CCNC(=O)CN1CCN(CC(=O)O)CCN(CC(=O)O)CCN(CC(=O)O)CC1)C(C)C)C(N)=O [lutetium-177 labelled],,"mouse, PC-3 xenograft",intravenous,,tumour clearance half-life,20.8 ± 8.5 h
CC(F)C(=O)NCCOCCOCCOCC(=O)N[C@@H](CCC(=O)NCCCC[C@@H]1NC(=O)[C@@H](Cc2ccc(O)cc2)NC(=O)[C@H](CC(=O)O)NC(=O)CNC(=O)[C@H](CCCNC(=N)N)NC1=O)C(=O)NCCCC[C@@H]1NC(=O)[C@@H](Cc2ccc(O)cc2)NC(=O)[C@H](CC(=O)O)NC(=O)CNC(=O)[C@H](CCCNC(=N)N)NC1=O (stereo partly shown) [fluorine-18 labelled],microPET imaging,"female athymic nude mouse, U-87 MG xenograft, U-87 MG tumour","intravenous, 3.7 MBq, 1 h post-injection",,tumour uptake,2.8 ± 0.46 %ID/g
CN1C(=O)[C@@H](Cc2ccc(O)cc2)NC(=O)CNC(=O)[C@H](Cc2ccc3ccccc3c2)NC(=O)[C@H](CCCNC(=N)N)NC(=O)[C@H]1CCCNC(=O)c1ccc(CNC(=O)CN2CCN(CC(=O)O)CCN(CC(=O)O)CCN(CC(=O)O)CC2)cc1 [gallium-68 labelled],,"mouse, CB-17 SCID, female, Daudi xenograft, tumour","intravenous, 0.05 nmol, 90 min",,tumour uptake,16.2 %ID/g
CSc1cc(C)[nH]c(=O)c1CN1CCc2c(Cl)c3c(c(C)c2C1=O)OC(C)(C1CCC(N(C)C)CC1)O3 (stereo not shown),,"female CB-17 SCID mouse, KARPAS-422 xenograft, tumour","oral, 25 mg/kg once daily, 1 h post dose on day 12",,tumour concentration,350 ng/g
CCCC[C@H](NC(=O)CN1CCC(NC(=O)CN2CCN(CC(=O)O)CCN(CC(=O)O)CCN(CC(=O)O)CC2)CC1)C(=O)N[C@H]1CC(=O)NCCCC[C@@H](C(N)=O)NC(=O)[C@H](Cc2c[nH]c3ccccc23)NC(=O)[C@H](CCCNC(=N)N)NC(=O)[C@@H](Cc2ccccc2)NC(=O)[C@H](Cc2c[nH]cn2)NC1=O,biodistribution,C57BL/6J mouse male tumour-bearing,"2 h post injection, unblocked",baseline: tumour over blood,tumour to blood ratio,96.4 ± 13.9
CCCC[C@H](NC(=O)CNC(=O)CNC(=O)CN1CCN(CC(=O)O)CCN(CC(=O)O)CCN(CC(=O)O)CC1)C(=O)N[C@H]1CC(=O)NCCCC[C@@H](C(N)=O)NC(=O)[C@H](Cc2c[nH]c3ccccc23)NC(=O)[C@H](CCCNC(=N)N)NC(=O)[C@@H](Cc2ccccc2)NC(=O)[C@H](Cc2c[nH]cn2)NC1=O [indium-111 labelled],,"C57 mouse, B16/F1 melanoma",4 h,baseline: tumour over liver,tumour to liver uptake ratio,31
CC(F)C(=O)NC[C@@H]1O[C@H](C(=O)NCCCC[C@@H]2NC(=O)[C@@H](Cc3ccccc3)NC(=O)[C@H](CC(=O)O)NC(=O)CNC(=O)[C@H](CCCNC(=N)N)NC2=O)[C@H](O)[C@H](O)[C@H]1O (stereo partly shown) [fluorine-18 labelled],microPET,"female athymic nude mouse, U-87 MG xenograft, U-87 MG tumour","intravenous, 3.7 MBq, 120 min",,tumour uptake,0.87 ± 0.13 %ID/g
Cc1ccc(C(C)C)cc1.O=C(N=P(c1ccccc1)(c1ccccc1)c1ccccc1)c1ccccn1.[Cl-].[Cl-].[Ru+2],item: ruthenium,"NOD.CB17-Prkdc scid/J mouse, tumour","dose not given, end of efficacy study",,tumour concentration,~40000 ng/g
N=C(N)NCCC[C@@H]1NC(=O)[C@H](CCCCNC(=O)CC[C@H](NC(=O)CN2CCN(CC(=O)O)CCN(CC(=O)O)CCN(CC(=O)O)CC2)C(=O)NCCCC[C@@H]2NC(=O)[C@@H](Cc3ccccc3)NC(=O)[C@H](CC(=O)O)NC(=O)CNC(=O)[C@H](CCCNC(=N)N)NC2=O)NC(=O)[C@@H](Cc2ccccc2)NC(=O)[C@H](CC(=O)O)NC(=O)CNC1=O [gallium-68 labelled],,"female nude BALB/c mouse, SK-RC-52 xenograft, tumour","intravenous, 2 h",,tumour uptake,5.24 ± 0.27 %ID/g
O=C(O)CCC(NP(=O)(O)OCCC[C@@H](NC(=O)CC[C@H](NC(=O)CCCCCNC(=O)c1ccc([18F])cc1)C(=O)O)C(=O)O)C(=O)O (stereo partly shown),,"mouse, CWR22Rv1 xenograft","dose not given, 4 h",baseline: tumour over blood,tumour to blood ratio,265 ± 136
CC(F)C(=O)NC[C@@H]1O[C@H](C(=O)N[C@@H](CCC(=O)NCCCC[C@@H]2NC(=O)[C@@H](Cc3ccc(O)cc3)NC(=O)[C@H](CC(=O)O)NC(=O)CNC(=O)[C@H](CCCNC(=N)N)NC2=O)C(=O)NCCCC[C@@H]2NC(=O)[C@@H](Cc3ccc(O)cc3)NC(=O)[C@H](CC(=O)O)NC(=O)CNC(=O)[C@H](CCCNC(=N)N)NC2=O)[C@H](O)[C@H](O)[C@H]1O (stereo partly shown) [fluorine-18 labelled],,"female athymic nude mouse, U-87 MG xenograft, U-87 MG tumour","dose not given, 1 h",,tumour uptake,2.1 ± 0.2 %ID/g
N=C(N)NCCC[C@@H]1NC(=O)[C@H](CCCCNC(=O)CC[C@H](NC(=O)CC[C@H](NC(=O)CN2CCN(CC(=O)O)CCN(CC(=O)O)CCN(CC(=O)O)CC2)C(=O)N[C@@H](CCC(=O)NCCCC[C@@H]2NC(=O)[C@@H](Cc3ccccc3)NC(=O)[C@H](CC(=O)O)NC(=O)CNC(=O)[C@H](CCCNC(=N)N)NC2=O)C(=O)NCCCC[C@@H]2NC(=O)[C@@H](Cc3ccccc3)NC(=O)[C@H](CC(=O)O)NC(=O)CNC(=O)[C@H](CCCNC(=N)N)NC2=O)C(=O)NCCCC[C@@H]2NC(=O)[C@@H](Cc3ccccc3)NC(=O)[C@H](CC(=O)O)NC(=O)CNC(=O)[C@H](CCCNC(=N)N)NC2=O)NC(=O)[C@@H](Cc2ccccc2)NC(=O)[C@H](CC(=O)O)NC(=O)CNC1=O [indium-111 labelled],,"female nude BALB/c mouse, SK-RC-52 xenograft, tumour","intravenous, 2 h",,tumour uptake,7.32 ± 2.45 %ID/g

# Repeated from above:
Compound,assay,test system,setting,scale,endpoint,result
CSc1cc(C)[nH]c(=O)c1CN1CCc2c(Cl)c3c(c(C)c2C1=O)OC(C)(C1CCC(N(C)C)CC1)O3 (stereo not shown),,"female CB-17 SCID mouse, KARPAS-422 xenograft, tumour","oral, 25 mg/kg once daily, 1 h post dose on day 12",,tumour concentration,350 ng/g
CCCC[C@H](NC(=O)CN1CCC(NC(=O)CN2CCN(CC(=O)O)CCN(CC(=O)O)CCN(CC(=O)O)CC2)CC1)C(=O)N[C@H]1CC(=O)NCCCC[C@@H](C(N)=O)NC(=O)[C@H](Cc2c[nH]c3ccccc23)NC(=O)[C@H](CCCNC(=N)N)NC(=O)[C@@H](Cc2ccccc2)NC(=O)[C@H](Cc2c[nH]cn2)NC1=O,biodistribution,C57BL/6J mouse male tumour-bearing,"2 h post injection, unblocked",baseline: tumour over blood,tumour to blood ratio,96.4 ± 13.9
CCCC[C@H](NC(=O)CNC(=O)CNC(=O)CN1CCN(CC(=O)O)CCN(CC(=O)O)CCN(CC(=O)O)CC1)C(=O)N[C@H]1CC(=O)NCCCC[C@@H](C(N)=O)NC(=O)[C@H](Cc2c[nH]c3ccccc23)NC(=O)[C@H](CCCNC(=N)N)NC(=O)[C@@H](Cc2ccccc2)NC(=O)[C@H](Cc2c[nH]cn2)NC1=O [indium-111 labelled],,"C57 mouse, B16/F1 melanoma",4 h,baseline: tumour over liver,tumour to liver uptake ratio,31
